Measurements pooled from the literature.
Lines come from different studies, so protocols differ. Values joined by “and” are separate records of one study, mostly repeats; a detail may differ. ± gives the spread as reported.
P4HB: Protein disulfide-isomerase (P4HB, Homo sapiens, UniProt P07237)
Chain of UniProt P07237 (whole entry, looked up): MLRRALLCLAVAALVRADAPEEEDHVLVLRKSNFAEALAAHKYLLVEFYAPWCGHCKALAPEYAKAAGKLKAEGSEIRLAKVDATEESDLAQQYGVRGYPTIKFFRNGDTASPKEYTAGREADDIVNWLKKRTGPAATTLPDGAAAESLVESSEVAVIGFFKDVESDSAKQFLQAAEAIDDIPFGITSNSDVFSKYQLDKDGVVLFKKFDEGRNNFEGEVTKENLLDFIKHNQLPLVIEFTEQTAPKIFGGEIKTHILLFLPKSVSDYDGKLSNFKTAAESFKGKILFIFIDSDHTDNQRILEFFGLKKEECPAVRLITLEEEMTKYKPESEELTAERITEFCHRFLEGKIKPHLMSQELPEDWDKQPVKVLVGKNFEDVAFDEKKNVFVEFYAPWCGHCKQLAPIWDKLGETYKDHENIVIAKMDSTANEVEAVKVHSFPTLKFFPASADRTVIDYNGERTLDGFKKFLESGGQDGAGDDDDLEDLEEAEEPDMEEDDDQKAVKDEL
CPL: CPL (Toxoplasma gondii, UniProt Q6DMN0)
gag-pol integrase: Gag-Pol polyprotein, integrase (gag-pol, Human immunodeficiency virus type 1 group M subtype B, UniProt P04585)
HDAC8: Histone deacetylase 8 (HDAC8, Homo sapiens, UniProt Q9BY41)
Chain of UniProt Q9BY41 (whole entry, looked up): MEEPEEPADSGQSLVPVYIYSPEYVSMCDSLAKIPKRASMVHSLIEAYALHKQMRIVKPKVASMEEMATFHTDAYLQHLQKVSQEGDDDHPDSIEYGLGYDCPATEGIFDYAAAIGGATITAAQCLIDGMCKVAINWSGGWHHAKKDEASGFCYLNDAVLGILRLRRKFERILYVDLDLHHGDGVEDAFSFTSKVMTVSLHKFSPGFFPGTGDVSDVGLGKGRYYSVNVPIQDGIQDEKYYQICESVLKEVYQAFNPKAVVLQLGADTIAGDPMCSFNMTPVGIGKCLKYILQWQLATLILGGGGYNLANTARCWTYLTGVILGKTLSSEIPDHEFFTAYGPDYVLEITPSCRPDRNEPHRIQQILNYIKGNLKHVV
Chain of UniProt P00488 (whole entry, looked up): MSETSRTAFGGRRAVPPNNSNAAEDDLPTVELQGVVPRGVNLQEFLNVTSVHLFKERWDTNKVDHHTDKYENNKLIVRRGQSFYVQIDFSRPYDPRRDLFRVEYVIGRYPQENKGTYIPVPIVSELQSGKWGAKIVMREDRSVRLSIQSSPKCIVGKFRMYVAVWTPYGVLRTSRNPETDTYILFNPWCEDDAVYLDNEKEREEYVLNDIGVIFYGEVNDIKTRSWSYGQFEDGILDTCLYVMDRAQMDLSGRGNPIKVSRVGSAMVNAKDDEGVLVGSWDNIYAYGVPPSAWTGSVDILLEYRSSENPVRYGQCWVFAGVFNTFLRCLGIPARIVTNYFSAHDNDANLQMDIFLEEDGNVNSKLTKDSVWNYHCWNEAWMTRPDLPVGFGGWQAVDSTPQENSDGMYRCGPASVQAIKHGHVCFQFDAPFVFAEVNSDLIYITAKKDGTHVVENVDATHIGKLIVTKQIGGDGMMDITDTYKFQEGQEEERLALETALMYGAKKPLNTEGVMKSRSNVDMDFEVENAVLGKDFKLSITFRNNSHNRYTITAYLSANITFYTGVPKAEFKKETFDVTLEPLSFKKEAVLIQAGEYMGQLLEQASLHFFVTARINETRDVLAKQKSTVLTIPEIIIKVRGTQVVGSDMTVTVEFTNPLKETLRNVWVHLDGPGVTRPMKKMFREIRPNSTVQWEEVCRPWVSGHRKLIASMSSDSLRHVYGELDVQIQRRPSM
Chain of UniProt P51878 (whole entry, looked up): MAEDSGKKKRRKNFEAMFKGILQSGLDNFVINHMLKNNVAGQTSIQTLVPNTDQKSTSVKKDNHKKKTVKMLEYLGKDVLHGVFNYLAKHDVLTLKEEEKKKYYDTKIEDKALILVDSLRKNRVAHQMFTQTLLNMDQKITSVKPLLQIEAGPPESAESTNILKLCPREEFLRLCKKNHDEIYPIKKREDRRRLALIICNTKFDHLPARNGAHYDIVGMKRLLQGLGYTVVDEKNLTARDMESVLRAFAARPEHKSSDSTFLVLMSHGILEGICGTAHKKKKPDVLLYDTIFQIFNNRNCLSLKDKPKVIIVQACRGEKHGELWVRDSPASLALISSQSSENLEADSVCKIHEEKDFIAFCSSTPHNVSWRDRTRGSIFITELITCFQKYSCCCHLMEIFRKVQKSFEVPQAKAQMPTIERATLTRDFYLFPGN
Chain of UniProt P05979 (whole entry, looked up): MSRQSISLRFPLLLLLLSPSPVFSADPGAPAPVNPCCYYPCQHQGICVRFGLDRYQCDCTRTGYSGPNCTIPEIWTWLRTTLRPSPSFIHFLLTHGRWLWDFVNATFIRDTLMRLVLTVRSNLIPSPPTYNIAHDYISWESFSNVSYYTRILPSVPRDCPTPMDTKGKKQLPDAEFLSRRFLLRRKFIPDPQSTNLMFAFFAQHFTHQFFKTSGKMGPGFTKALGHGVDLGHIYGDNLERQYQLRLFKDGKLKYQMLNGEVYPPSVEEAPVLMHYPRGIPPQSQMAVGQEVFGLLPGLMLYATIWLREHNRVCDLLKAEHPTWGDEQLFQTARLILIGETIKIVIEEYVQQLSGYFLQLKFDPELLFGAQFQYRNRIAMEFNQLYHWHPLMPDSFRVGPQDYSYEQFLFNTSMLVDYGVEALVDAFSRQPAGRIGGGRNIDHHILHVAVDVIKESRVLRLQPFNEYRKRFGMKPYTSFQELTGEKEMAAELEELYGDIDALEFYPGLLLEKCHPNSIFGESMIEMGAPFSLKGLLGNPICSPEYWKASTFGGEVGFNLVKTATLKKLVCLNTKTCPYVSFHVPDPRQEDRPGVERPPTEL
Chain of UniProt O15393 (whole entry, looked up): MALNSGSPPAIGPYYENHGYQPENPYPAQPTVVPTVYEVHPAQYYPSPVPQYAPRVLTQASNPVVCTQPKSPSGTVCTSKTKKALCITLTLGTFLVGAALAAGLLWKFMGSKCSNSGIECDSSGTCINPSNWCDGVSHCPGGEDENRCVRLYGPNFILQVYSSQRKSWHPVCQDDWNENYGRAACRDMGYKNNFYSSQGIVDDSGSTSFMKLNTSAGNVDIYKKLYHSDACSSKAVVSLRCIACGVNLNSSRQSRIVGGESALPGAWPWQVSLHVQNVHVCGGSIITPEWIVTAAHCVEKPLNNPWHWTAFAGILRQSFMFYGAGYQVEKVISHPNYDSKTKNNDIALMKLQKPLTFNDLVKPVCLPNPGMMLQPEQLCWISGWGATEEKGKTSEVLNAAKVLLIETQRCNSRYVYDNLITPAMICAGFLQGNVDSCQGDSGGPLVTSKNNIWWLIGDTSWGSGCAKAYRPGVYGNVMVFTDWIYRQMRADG
Chain of UniProt O00748 (whole entry, looked up): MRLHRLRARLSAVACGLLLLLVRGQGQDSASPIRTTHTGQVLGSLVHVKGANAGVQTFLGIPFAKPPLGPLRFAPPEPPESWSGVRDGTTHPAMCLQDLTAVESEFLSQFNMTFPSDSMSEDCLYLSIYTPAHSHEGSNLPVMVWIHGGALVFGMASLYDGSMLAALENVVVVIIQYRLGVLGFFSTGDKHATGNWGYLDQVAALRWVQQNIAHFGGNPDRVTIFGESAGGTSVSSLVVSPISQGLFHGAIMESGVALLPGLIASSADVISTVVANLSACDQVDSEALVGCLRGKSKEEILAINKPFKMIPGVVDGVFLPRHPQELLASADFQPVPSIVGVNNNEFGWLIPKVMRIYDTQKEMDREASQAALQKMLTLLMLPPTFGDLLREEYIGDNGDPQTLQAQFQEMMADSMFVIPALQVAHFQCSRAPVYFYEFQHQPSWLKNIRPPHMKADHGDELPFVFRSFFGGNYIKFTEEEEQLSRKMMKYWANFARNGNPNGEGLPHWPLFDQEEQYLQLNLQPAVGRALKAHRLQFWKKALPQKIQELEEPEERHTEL
Chain of UniProt P10275 (whole entry, looked up): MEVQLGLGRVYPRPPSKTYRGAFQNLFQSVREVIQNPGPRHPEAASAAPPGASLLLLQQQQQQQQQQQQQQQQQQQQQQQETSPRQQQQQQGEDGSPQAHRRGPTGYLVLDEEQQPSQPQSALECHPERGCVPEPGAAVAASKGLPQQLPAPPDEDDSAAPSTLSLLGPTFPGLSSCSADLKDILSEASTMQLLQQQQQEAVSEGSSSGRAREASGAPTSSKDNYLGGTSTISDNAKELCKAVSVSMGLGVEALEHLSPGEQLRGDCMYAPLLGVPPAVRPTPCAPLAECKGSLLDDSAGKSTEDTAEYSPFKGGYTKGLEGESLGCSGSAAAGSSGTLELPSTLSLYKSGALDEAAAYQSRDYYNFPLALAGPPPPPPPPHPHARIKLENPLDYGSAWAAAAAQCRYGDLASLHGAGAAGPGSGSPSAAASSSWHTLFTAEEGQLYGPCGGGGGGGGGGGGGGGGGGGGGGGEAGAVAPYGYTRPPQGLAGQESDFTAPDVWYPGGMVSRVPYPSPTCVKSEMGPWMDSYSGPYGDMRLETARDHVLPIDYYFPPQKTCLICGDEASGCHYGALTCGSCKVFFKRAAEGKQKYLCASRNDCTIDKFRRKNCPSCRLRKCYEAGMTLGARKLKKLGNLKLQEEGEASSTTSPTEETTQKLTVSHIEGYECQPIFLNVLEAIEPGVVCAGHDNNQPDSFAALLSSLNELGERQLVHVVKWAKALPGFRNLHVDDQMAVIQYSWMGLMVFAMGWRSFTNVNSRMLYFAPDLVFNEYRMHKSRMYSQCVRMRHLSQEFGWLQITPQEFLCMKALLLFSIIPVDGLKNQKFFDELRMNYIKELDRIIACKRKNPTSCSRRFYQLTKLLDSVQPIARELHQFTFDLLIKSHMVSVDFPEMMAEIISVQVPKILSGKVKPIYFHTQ
Chain of UniProt P52700 (whole entry, looked up): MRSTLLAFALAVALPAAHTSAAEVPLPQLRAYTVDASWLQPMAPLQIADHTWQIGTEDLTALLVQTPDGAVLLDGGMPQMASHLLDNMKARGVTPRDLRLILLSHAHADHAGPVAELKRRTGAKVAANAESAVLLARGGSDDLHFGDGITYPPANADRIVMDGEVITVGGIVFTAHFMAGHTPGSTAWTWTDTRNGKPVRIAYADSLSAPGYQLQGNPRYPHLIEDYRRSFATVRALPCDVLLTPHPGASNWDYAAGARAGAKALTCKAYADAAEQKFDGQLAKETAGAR

| SMILES | target | assay | test system | setting | IC50 |
| --- | --- | --- | --- | --- | --- |
| COc1ccc(N=Nc2cccc(NC(=O)CCCCCCC(=O)NO)c2)cc1 | HDAC3 (Homo sapiens, UniProt O15379) | enzyme activity, inhibitor |  | cis isomer, irradiated | 67 ± 23 nM |
| COC(=O)C=CCCC(NC(=O)c1ccncc1C(=O)O)C(=O)NC(C(=O)N1CC(=O)CC1C(=O)NC(C(=O)NC(C(N)=O)C1CCCCC1)C1CCCCC1)C(C)(C)C (stereo not shown) | F13A1 (Homo sapiens, UniProt P00488) | isopeptidase activity, inhibitor |  | together with: substrate A101, thrombin-activated | 14 nM and 16 nM |
| COC(=O)C1CN1S(=O)(=O)c1c(C)cc(C)cc1C (stereo not shown) | P4HB | enzyme activity, inhibitor, absorbance |  | pH 7.6 | 6800 nM |
| N#Cc1nc(N2CCOCC2)nc(N(Cc2ccc(F)cc2)CC2CCCNC2)n1 (stereo not shown) | CPL | enzyme activity, inhibitor, Z-L-R-AMC hydrolysis fluorescence |  |  | 181 nM |
| COc1cccc(/C=C/C(=O)C(c2ccccc2)c2ccccc2)c1OC | PTGS1 (Ovis aries, UniProt P05979) | enzyme activity, inhibitor, ELISA |  |  | 14600 nM and < 25000 nM |
| CC(C)CCCN(Cc1ccc(F)cc1)c1nc(C#N)nc(N2CCOCC2)n1 | CPL | enzyme activity, inhibitor, Z-L-R-AMC hydrolysis fluorescence |  |  | 220 nM |
| C=CCCCC[C@](C)(NC(=O)[C@H](CC(C)C)NC(=O)[C@H](CCCCN)NC(=O)[C@H](CC(C)C)NC(=O)[C@](C)(CCCCC=C)NC(=O)[C@H](Cc1ccccc1)NC(=O)[C@H](Cc1ccc(O)cc1)NC(=O)[C@H](C)NC(=O)[C@@H](N)[C@@H](C)O)C(=O)NCC(=O)N[C@@H](CCCNC(=N)N)C(=O)N[C@@H](Cc1c[nH]c2ccccc12)C(N)=O | gag-pol integrase | integrase strand transfer, inhibitor |  |  | 43000 ± 5000 nM |
| CC(=O)N[C@@H](CC(C)C)C(=O)N[C@@H](CCC(=O)O)C(=O)N[C@@H](CO)C(=O)N[C@@H](CC(=O)O)C(=O)CCl | Caspase-5 (CASP5, Homo sapiens, UniProt P51878) | enzyme activity, inhibitor, fluorescence |  |  | 2030 nM and 2000 nM |
| CN(C)c1ccc(C(=O)NCc2ccc(CNC(=O)CS)cc2)cc1 | HDAC8 | enzyme activity, inhibitor |  |  | 16700 nM |
| Cn1nc(-c2ccc3ccccc3c2)cc1[C@H]1CN2CC[C@@H]1C[C@@H]2CNCc1ccco1 | DNA topoisomerase 2-binding protein 1, BRCT7-8 domains (TOPBP1, Homo sapiens, UniProt Q92547) | inhibitor, streptavidin pulldown, immunoblotting |  |  | 20 nM |
| Nc1nccnc1C(=O)Nc1nc2ccc(OC(F)(F)F)cc2s1 | TMPRSS2 (Homo sapiens, UniProt O15393) | enzyme activity, inhibitor, fluorescence |  |  | 4930 nM |
| Cc1ccc(S(=O)(=O)N2CC2C(N)=O)cc1 (stereo not shown) | P4HB | enzyme activity, inhibitor, absorbance |  | pH 7.6 | 227000 nM |
| CC(C)C[C@H](NC(=O)OCc1ccccc1)C(=O)N[C@@H](C[C@H]1CCNC1=O)C(=O)C(=O)NC1CC1 | Genome polyprotein, 3C protease (Human enterovirus D68, UniProt Q68T42) | 3C protease activity, inhibitor, FRET |  |  | 100 ± 10 nM |
| CC[C@@H]1C(=O)N(C)c2cnc(Nc3ccc(C(=O)NCCCC[C@H](NC(=O)[C@@H](NC(=O)[C@H](CO)NC(=O)[C@H](Cc4cncn4CCCCCCCCc4ccccc4)NC(=O)[C@H](CC(C)C)NC(=O)[C@@H]4CCCN4C(C)=O)[C@@H](C)OP(=O)(O)O)C(N)=O)cc3OC)nc2N1C1CCCC1 | CAMKK2 (Homo sapiens, UniProt Q96RR4) | enzyme activity, inhibitor |  |  | 350 nM |
| O=C(CCCCCCC(=O)Nc1ccc(N=Nc2ccccc2)cc1)NO | HDAC8 | enzyme activity, inhibitor |  | trans isomer | 1610 ± 423 nM |
| Cc1cccc(C(c2c[nH]c3ccccc23)C(C#N)C#N)c1 (stereo not shown) | Cocaine esterase (CES2, Homo sapiens, UniProt O00748) | enzyme activity, inhibitor | human liver microsomes | pH 7.4, 37 °C, together with: fluorescein diacetate | 9010 ± 2490 nM |

| SMILES | target | assay | test system | setting | IC50 |
| --- | --- | --- | --- | --- | --- |
| CN[C@H](CC(C)C)C(=O)N[C@H]1C(=O)N[C@@H](CC(N)=O)C(=O)N[C@H]2C(=O)N[C@H]3C(=O)N[C@H](C(=O)N[C@H](C(=O)O)c4cc(O)cc(O)c4-c4cc3ccc4O)[C@H](O)c3ccc(c(Cl)c3)Oc3cc2cc(c3O[C@@H]2O[C@H](CO)[C@@H](O)[C@H](O)[C@H]2O[C@H]2C[C@](C)(NCc3ccc(C(=O)OCCCCCCN(Cc4ccccn4)Cc4ccccn4)cc3)[C@H](O)[C@H](C)O2)Oc2ccc(cc2Cl)[C@H]1O | Beta-lactamase L1 (Stenotrophomonas maltophilia, UniProt P52700) | enzyme activity, inhibitor, fluorescence |  |  | 10200 nM |
| CN(CCO)c1ccc(/C=C/C(=O)c2ccco2)cc1 | PTGS2 (Homo sapiens, UniProt P35354) | enzyme activity, inhibitor, ELISA |  |  | 59600 nM |
| C[C@@H]1NC(=O)[C@H](CCCCN)NC(=O)[C@@H]2CSSC[C@H](NC(=O)[C@H](CO)NC(=O)[C@@H]3CCCN3C(=O)[C@@H]3CCCN3C(=O)[C@H](C)NC(=O)[C@H](CO)NC1=O)C(=O)NC(c1cccc3ccccc13)CC(=O)N[C@@H](CC(=O)O)C(=O)NCC(=O)N[C@@H](CC(=O)O)C(=O)N[C@@H](CC(=O)O)C(=O)N2 (stereo partly shown) | Lymphocyte function-associated antigen 3 (CD58, Homo sapiens, UniProt P19256) |  |  |  | > 50000 nM |
| CSCC[C@H](NC(=O)[C@H](Cc1ccccc1)NC(=O)[C@H](Cc1c[nH]cn1)NC(=O)CNC(=O)[C@@H](NC(=O)[C@H](C)NC(=O)[C@H](Cc1c[nH]c2ccccc12)NC(=O)[C@H](CCC(N)=O)NC(=O)[C@@H]1CCCN1C(=O)CNC(=O)CNC(=O)CNC(=O)[C@@H]1CCC(=O)N1)C(C)C)C(N)=O | BRS3 (Homo sapiens, UniProt P32247) | human GRPR activity, cell-based |  |  | > 3000 nM |
| CC(C)C[C@H](NC(=O)[C@H](Cc1ccc(O)cc1)NC(=O)[C@@H](CCCNC(=N)N)NC(=O)[C@@H](CO)NC(=O)[C@H](Cc1ccccc1)NC(=O)[C@H](CC1CCCCC1)NC(=O)[C@H](CC(=O)O)NC(=O)CCC(C(=O)O)N1CCCN2CCN(CCCN(CC(=O)O)CC2)CC1)C(=O)N[C@@H](Cc1c[nH]c2ccccc12)C(=O)N[C@@H](CO)C(=O)O (stereo partly shown) | Urokinase plasminogen activator surface receptor (Homo sapiens, UniProt Q03405) | binding to pro-uPA, inhibitor, surface plasmon resonance |  | together with: uPAR 0.5 nM | 6.1 ± 1 nM |
| COc1ccc(-n2c(SCC#N)nnc2[C@H](Cc2ccccc2)NC(=O)Cc2c(C)[nH]c3ccccc23)cc1 | HIV-1 capsid hexamer | CPSF6 binding, inhibitor, SPR competition |  |  | 33.4 nM |
| CC(N)CCc1ccccc1Cl (racemic) | DRD2 (Homo sapiens, UniProt P14416) |  |  |  | > 10000 nM |
| CC[C@H](C)[C@H](NC(=O)[C@H](Cc1ccccc1)NC(=O)[C@H](CCN)NC(=O)[C@H](CCCNC(=N)N)NC(=O)[C@H](Cc1ccccc1)NC(=O)[C@H](Cc1ccccc1)NC(=O)[C@H](CCN)NC(=O)[C@H](CO)NC(=O)[C@H](CC(C)C)NC(=O)[C@H](CCCNC(=N)N)NC(=O)[C@H](CCSC)NC(=O)[C@H](C)N)C(=O)N[C@@H](CC(C)C)C(=O)N[C@@H](CCC(N)=O)C(=O)N[C@@H](CCCNC(=N)N)C(=O)N[C@@H](CCCCN)C(=O)N[C@@H](CCCCN)C(=O)O | histidine kinase ComD (Streptococcus pneumoniae serotype 4, UniProt A0A0H2US84) |  | Streptococcus pneumoniae cells, Streptococcus pneumoniae |  | > 1000 nM |
| CC(C)CCN(Cc1ccncc1)c1nc(C#N)nc(N2CCOCC2)n1 | CPL | enzyme activity, inhibitor, Z-L-R-AMC hydrolysis fluorescence |  |  | 107 nM |
| NC1CC1c1ccc(NC(=O)c2ccc(-c3ccccc3)cc2)cc1 (stereo not shown) | Lysine-specific histone demethylase 1A, with CoREST (KDM1A, Homo sapiens, UniProt O60341) | demethylase activity, inhibitor, Amplex UltraRed HRP |  | 15 min preincubation, together with: H3K4me1 peptide, CoREST | 51 ± 8 nM |
| CCCCCOC(=O)c1ccc(Nc2ccccc2C(=O)O)cc1 | Androgen receptor (AR, Homo sapiens, UniProt P10275) | reporter gene, antagonist, MMTV-Luc reporter | MDA-kb2 | 20 h, together with: 8 nM DHT (EC90) | 83800 ± 20700 nM |
| COc1ccc(C(=O)CCl)c2c1C(=O)CO2 | Protein FosB, ΔFosB isoform (Fosb, Mus musculus, UniProt P13346) | ΔFOSB homodimer DNA binding, fluorescence polarization |  | 15 min, together with: TMR-cdk5 oligonucleotide | 27400 ± 100 nM |
| Fc1ncc(C2CC3CCC2N3)cc1-c1ccnc(Cl)c1 (racemic) | Neuronal acetylcholine receptor; alpha4/beta2 (Rattus norvegicus, UniProt P09483+P12390) | ion current, antagonist, two-electrode voltage clamp |  | oocytes | 2000 nM |
| CC[C@H](C)[C@@H]1NC(=O)[C@H](CC(C)C)NC(=O)[C@@](C)(NC(=O)[C@H](Cc2ccccc2)NC(=O)[C@H](Cc2ccc(O)cc2)NC(=O)[C@H](C)NC(=O)[C@@H](N)[C@@H](C)O)CCCC=CCCC[C@@](C)(C(=O)NCC(=O)N[C@@H](CCCNC(=N)N)C(=O)N[C@@H](Cc2c[nH]c3ccccc23)C(N)=O)NC(=O)[C@H](CC(C)C)NC1=O | gag-pol integrase | integrase 3'-processing, inhibitor |  |  | 22000 ± 3000 nM |
| CC(C)C[C@@H]1NC(=O)[C@@H](CCCNC(=N)N)NC(=O)[C@H](CCCCN)NC(=O)[C@H](CC(=O)O)NC(=O)[C@H](CCCCN)NC(=O)[C@H](CO)NC1=O | Disintegrin and metalloproteinase domain-containing protein 8 (Homo sapiens, UniProt P78325) | enzyme activity, inhibitor, fluorescence |  |  | 1980 nM |

Excerpt of the above:
| SMILES | target | assay | test system | setting | IC50 |
| --- | --- | --- | --- | --- | --- |
| N#Cc1nc(N2CCOCC2)nc(N(Cc2ccc(F)cc2)CC2CCCNC2)n1 (stereo not shown) | CPL | enzyme activity, inhibitor, Z-L-R-AMC hydrolysis fluorescence |  |  | 181 nM |
| COc1cccc(/C=C/C(=O)C(c2ccccc2)c2ccccc2)c1OC | PTGS1 (Ovis aries, UniProt P05979) | enzyme activity, inhibitor, ELISA |  |  | 14600 nM and < 25000 nM |
| CC(C)CCCN(Cc1ccc(F)cc1)c1nc(C#N)nc(N2CCOCC2)n1 | CPL | enzyme activity, inhibitor, Z-L-R-AMC hydrolysis fluorescence |  |  | 220 nM |
